# Measurements of several laboratories.
# Parts stem from different laboratories: compare values within a part only. Changes are numbered by the printed parent chain.

# Series 1
# Target: Histone acetyltransferase KAT6A, winged helix 2, GST fusion (KAT6A, Homo sapiens, UniProt Q92794, residues 85-181)
# Method: protein binding microarray
# Molecule type: double-stranded DNA, one strand shown
# Medium: in vitro
# Tested at: not given
# Setting: 8-mer, flanks averaged, mean of 2 arrays, mostly near background
# Baseline: not given
# Direction: higher = stronger binding
# Target sequence (chain): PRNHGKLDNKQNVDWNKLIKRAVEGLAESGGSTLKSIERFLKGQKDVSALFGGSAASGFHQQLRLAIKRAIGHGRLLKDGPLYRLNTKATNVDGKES
Strand,E-score
TCGTAACA,-0.0858
CCAGCAGC,-0.0522
AGAGTACC,-0.132
ATTATTGA,-0.103
CTCGTGAC,-0.0407
AAGCTGGC,0.0393
CCCCTTGA,0.0929
ATTACCCA,0.0384
ACATATTA,0.117
CGCGCCCA,0.2
CAAAAGCC,0.061
AAATCGAA,-0.0537
GGAAGATA,-0.0522
ATCAAGCC,0.111
CGCACGAG,-0.117
GCATATAA,0.103
AGCTGGGC,0.0437
CTTGAAAC,0.138
ATGGATAG,-0.0661
CTTTACGA,-0.117
ATGATGCG,0.0766
CAATGTTA,-0.0352
CGGACCGA,0.198

# Series 2
# Target: ABI1, truncated, D143A, DHFR fusion (Arabidopsis thaliana)
# Method: DHFR PCA, deep sequencing
# Medium: yeast
# Setting: methotrexate growth selection, single substitutions
# Together with: (+)-ABA 0.11 µM
# Baseline: wild-type fitted maximum
# Direction: higher = stronger binding
# Starting sequence: PYL1, truncated, DHFR fusion (Arabidopsis thaliana); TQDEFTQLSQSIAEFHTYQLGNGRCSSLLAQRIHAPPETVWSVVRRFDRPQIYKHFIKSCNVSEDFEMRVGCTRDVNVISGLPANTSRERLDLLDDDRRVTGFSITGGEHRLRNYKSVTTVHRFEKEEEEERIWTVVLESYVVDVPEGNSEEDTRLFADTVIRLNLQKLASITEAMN
Change,relative binding score
A170I,-9.81%
G108D,4.5%
R46A,24.2%
R32Q,20.7%
I33F,2.75%
R123Y,1.47%
S80C,30.4%
I133P,47.2%
Q31W,0.546%
D75H,36.8%
H16I,-2.1%

# Series 3
# Target: RNA binding protein fox-1 homolog 2, RRM domain, GST-SBP tag (RBFOX2, Homo sapiens, UniProt O43251-10, residues 100-194)
# Method: RNA Bind-n-Seq
# Molecule type: RNA
# Medium: in vitro
# Tested at: 365 nM
# Setting: natural RNA segment, single round, ends assumed
# Baseline: no-protein control
# Direction: higher = stronger binding
# Residues (chain): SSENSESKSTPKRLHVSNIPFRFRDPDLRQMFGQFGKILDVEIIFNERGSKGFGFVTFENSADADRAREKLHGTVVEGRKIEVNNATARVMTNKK
Strand,RBNS enrichment (R)
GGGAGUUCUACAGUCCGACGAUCCAUCAACACAACCAGUCUAACAGUGAAGCUCUCCUUGGGCAUUUGAUGGGCGUCCAAGCAGACCACACGGAUCACUGAGGCACUGAUGUAGGCCCCUCUGCAACGACUUCUGGAAUUCUCGGGUGCCAA,0.405
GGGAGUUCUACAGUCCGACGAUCCUAUACUUUGCCAUGCACGACUGUUCCUGCAAUUGAUAUUGUGUGAAAUCUGGGAGGGUGGUCUUUGGGUGUUCUCAGGGGCCAAUGGUAAUUUUUGGGUUGGGGAGCCAUGGAAUUCUCGGGUGCCAA,0.548
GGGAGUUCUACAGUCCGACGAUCGAUACUCCCUUGUGUGUUCUGUCCUAUCCAGAUGGCCUGCUAGAUUGAAUUAUACUCACCAACACAUAGAACAGGCCCUUUAGAAGGCACUAGGUGUUUGGAGGUGAGCUUGGAAUUCUCGGGUGCCAA,1.23
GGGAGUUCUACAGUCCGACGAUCAAGGUAUCUGUUUUGUAAGUUUGGAUUUUUGUAUAUCUGGUUUAUCUUAAGCUUCUCUACUGAGGCAUUCUGAGUAGUGGCCAUCAGAGUCUCCUGCCUGCCCACAGAGCUGGAAUUCUCGGGUGCCAA,0.378
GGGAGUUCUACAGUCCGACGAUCUCAUUGUUCUGCGAUUUAUUUUAGAGAUUGUCCAUGAGCACUGAACAAGGAGAAGAAGUUUCUUGUUGCUUUACAACAGUGUGUGCUAAGUGCUGGACUUGGCCAUGGGUUGGAAUUCUCGGGUGCCAA,0.734
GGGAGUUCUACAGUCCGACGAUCACAACAACCCAUAUAAAUAAAACCCACCCCUCUCUGGGAAACAACCAUAAUUCAAACAUGGCUAUUUAGUAAUCAGAAGGUAUUGUCUCAGACAGGAUUUCAUUUCCGGGUGGAAUUCUCGGGUGCCAA,0.364
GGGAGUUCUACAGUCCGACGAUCGCAGCUCCCAGCAUGCUCCGUGAUGUUCAGUGGGCAGCAUUACCCCCUCUGCUGCCUCCCGCCCCCGCUUAUCCAGGCGUGCACCAUGCAGCAGCUGCCUGUGCCCUAUCUGGAAUUCUCGGGUGCCAA,10.8
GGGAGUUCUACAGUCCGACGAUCCUCCUCCAUCAGAUGUCUGGGCCUCCUCCAUCAGAUGCCUGGGCCUCCUCCAUCAGAUGCCUGGGCCUCCUCCAUCAGAUGUCUGGGCCUCCUCCAUCAGAUGCCUGGGCUGGAAUUCUCGGGUGCCAA,0.395
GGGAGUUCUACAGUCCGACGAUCUUUCCCCCUUCUUGUUUGCACAUGCCAAGAUAACUGCUUUUAUGCAGGCUGUACCCCCUUGAAAAAUCCUUUCUACAGUGCUGCUCACAAAAGAGCCCAAGUUCGCCUCCUGGAAUUCUCGGGUGCCAA,1.06
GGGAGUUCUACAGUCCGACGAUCACUUUUGAAAAAUUAGAAUUCCUUUGCAUUCAGCAUGGACUCAGCCAGGAAUCUAUGGAGGAUUUUUUUUUUUGCUUCAUUUUCUAAAGUUGUAUUUAGAAAUAUCUUAUUGGAAUUCUCGGGUGCCAA,8.71
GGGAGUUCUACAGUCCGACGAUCCUUCCUCUUUCCCAGCCCUAUUUCUGGGAUCCCAGAGGGGCAGGGGUGGUGGAGGCGGUGCCGGGACUUGGCUGAGUGCAGUUUGAGCUCUAGGCUUGUCUCCAUGGGAAUGGAAUUCUCGGGUGCCAA,0.239
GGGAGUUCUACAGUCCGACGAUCUUGGUUCCAAGUCUUUGCUAUUGUGAAUAAUGCCGCAAUAAACAUACGUGUGCAUGUGUCUUUAUAGCAGCAUGAUUUAUAGUCAUUUGGGUAUAUACCCAGUAAUGGGAUGGAAUUCUCGGGUGCCAA,0.366

# Series 4
# Target: Prothrombin, mature alpha-thrombin (F2, Homo sapiens, UniProt P00734)
# Method: aptamer microarray, sandwich
# Molecule type: DNA with 2'F-ANA
# Medium: in vitro
# Tested at: 200 nM
# Setting: whole 15-mer aptamer, many near background
# Together with: Cy3 exosite-II aptamer, 400 nM
# Direction: higher = stronger binding
# Strand: GGTTGGTGTGGTTGG
Modification,mean fluorescence intensity [a.u.]
2'F-ANA at 2 7 8 10 11 12 14,91.9
2'F-ANA at 1 2 3 4 7 8 13,154
2'F-ANA at 1 4 5 7 8 11 12,83.3
2'F-ANA at 2 3 7 9 11 12 13 14 15,445
2'F-ANA at 1 5 7 10,45
2'F-ANA at 1 2 3 4 8 9 12 14,88.9
2'F-ANA at 1 2 3 4 8 10 11 12 13 14 15,51.4
2'F-ANA at 1 2 3 4 5 6 7 11 12 13 15,71
2'F-ANA at 9 11 14 15,192
2'F-ANA at 1 3 4 6 7 8 9 12 13 14,75.2
2'F-ANA at 2 3 5 7 11 12 13 14,57
2'F-ANA at 5 7 8 10 13 15,45.8
2'F-ANA at 2 7 8 9 10,185
2'F-ANA at 3 7 13 15,1040
2'F-ANA at 2 3 6 10 11,385
2'F-ANA at 1 2 4 5 6 8 11,148
2'F-ANA at 9 10 15,175
2'F-ANA at 4 5 6 7 11 12 13 14 15,51.3
2'F-ANA at 2 3 4 5 7 9 11 14 15,50.6
2'F-ANA at 2 3 5 6 11 12 13 15,109
2'F-ANA at 1 4 7 10 13 14 15,72.3
2'F-ANA at 1 2 3 4 7 9 13,107
2'F-ANA at 1 2 3 4 6 8 9 10 11 12 13 15,86.2
2'F-ANA at 1 3 5 7 8 11 12 13 15,93.2

# A few entries again (series 1):
Strand,E-score
CCCCTTGA,0.0929
ATTACCCA,0.0384
ACATATTA,0.117
CGCGCCCA,0.2
CAAAAGCC,0.061
AAATCGAA,-0.0537
GGAAGATA,-0.0522
ATCAAGCC,0.111
CGCACGAG,-0.117
GCATATAA,0.103
AGCTGGGC,0.0437
